Assay results gathered from unrelated publications.
Each line is one published result; not all experiments were run side by side. Numbers after ± are the reported error. Ends that are not written are not given here. * marks the point of attachment.
PDE1C: Dual specificity calcium/calmodulin-dependent 3',5'-cyclic nucleotide phosphodiesterase 1C (PDE1C, Homo sapiens, UniProt Q14123)
Sequence of UniProt Q14123 (whole entry, looked up): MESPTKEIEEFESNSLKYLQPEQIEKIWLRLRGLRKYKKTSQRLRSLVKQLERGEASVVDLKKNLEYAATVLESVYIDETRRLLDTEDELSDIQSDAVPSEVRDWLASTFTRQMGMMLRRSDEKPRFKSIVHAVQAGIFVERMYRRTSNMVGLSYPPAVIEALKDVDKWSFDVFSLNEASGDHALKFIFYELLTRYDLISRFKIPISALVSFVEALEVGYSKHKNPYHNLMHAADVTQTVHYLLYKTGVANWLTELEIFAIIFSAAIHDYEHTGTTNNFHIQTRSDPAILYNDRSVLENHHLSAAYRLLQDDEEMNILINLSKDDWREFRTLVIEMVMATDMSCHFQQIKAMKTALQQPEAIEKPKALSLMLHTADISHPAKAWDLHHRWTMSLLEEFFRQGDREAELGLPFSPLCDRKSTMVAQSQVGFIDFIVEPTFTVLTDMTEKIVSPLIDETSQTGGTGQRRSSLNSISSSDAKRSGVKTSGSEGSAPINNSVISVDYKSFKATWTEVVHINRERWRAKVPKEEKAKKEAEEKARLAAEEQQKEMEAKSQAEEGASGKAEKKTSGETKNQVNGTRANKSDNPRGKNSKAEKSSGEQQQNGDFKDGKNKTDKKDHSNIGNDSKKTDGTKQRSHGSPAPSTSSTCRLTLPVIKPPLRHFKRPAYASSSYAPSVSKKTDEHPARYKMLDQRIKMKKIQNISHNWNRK
MAL12: Alpha-glucosidase MAL12 (MAL12, Saccharomyces cerevisiae S288c, UniProt P53341)
Sequence of UniProt P53341 (whole entry, looked up): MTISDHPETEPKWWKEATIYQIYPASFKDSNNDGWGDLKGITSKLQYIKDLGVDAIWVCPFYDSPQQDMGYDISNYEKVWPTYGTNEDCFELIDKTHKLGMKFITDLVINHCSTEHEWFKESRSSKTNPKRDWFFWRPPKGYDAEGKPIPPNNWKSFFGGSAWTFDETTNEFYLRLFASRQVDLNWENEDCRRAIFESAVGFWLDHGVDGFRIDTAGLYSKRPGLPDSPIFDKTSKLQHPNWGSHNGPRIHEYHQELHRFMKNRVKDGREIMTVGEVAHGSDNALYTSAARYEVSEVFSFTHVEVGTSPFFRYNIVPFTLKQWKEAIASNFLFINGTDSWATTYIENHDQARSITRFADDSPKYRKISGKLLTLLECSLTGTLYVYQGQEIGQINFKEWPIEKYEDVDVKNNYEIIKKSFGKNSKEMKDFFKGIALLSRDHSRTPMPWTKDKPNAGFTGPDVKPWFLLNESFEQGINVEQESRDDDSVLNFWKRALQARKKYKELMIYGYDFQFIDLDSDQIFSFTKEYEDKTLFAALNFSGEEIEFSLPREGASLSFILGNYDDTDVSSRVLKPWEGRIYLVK
SCN9A: Sodium channel protein type 9 subunit alpha (SCN9A, Homo sapiens, UniProt Q15858)
Sequence of UniProt Q15858 (whole entry, looked up): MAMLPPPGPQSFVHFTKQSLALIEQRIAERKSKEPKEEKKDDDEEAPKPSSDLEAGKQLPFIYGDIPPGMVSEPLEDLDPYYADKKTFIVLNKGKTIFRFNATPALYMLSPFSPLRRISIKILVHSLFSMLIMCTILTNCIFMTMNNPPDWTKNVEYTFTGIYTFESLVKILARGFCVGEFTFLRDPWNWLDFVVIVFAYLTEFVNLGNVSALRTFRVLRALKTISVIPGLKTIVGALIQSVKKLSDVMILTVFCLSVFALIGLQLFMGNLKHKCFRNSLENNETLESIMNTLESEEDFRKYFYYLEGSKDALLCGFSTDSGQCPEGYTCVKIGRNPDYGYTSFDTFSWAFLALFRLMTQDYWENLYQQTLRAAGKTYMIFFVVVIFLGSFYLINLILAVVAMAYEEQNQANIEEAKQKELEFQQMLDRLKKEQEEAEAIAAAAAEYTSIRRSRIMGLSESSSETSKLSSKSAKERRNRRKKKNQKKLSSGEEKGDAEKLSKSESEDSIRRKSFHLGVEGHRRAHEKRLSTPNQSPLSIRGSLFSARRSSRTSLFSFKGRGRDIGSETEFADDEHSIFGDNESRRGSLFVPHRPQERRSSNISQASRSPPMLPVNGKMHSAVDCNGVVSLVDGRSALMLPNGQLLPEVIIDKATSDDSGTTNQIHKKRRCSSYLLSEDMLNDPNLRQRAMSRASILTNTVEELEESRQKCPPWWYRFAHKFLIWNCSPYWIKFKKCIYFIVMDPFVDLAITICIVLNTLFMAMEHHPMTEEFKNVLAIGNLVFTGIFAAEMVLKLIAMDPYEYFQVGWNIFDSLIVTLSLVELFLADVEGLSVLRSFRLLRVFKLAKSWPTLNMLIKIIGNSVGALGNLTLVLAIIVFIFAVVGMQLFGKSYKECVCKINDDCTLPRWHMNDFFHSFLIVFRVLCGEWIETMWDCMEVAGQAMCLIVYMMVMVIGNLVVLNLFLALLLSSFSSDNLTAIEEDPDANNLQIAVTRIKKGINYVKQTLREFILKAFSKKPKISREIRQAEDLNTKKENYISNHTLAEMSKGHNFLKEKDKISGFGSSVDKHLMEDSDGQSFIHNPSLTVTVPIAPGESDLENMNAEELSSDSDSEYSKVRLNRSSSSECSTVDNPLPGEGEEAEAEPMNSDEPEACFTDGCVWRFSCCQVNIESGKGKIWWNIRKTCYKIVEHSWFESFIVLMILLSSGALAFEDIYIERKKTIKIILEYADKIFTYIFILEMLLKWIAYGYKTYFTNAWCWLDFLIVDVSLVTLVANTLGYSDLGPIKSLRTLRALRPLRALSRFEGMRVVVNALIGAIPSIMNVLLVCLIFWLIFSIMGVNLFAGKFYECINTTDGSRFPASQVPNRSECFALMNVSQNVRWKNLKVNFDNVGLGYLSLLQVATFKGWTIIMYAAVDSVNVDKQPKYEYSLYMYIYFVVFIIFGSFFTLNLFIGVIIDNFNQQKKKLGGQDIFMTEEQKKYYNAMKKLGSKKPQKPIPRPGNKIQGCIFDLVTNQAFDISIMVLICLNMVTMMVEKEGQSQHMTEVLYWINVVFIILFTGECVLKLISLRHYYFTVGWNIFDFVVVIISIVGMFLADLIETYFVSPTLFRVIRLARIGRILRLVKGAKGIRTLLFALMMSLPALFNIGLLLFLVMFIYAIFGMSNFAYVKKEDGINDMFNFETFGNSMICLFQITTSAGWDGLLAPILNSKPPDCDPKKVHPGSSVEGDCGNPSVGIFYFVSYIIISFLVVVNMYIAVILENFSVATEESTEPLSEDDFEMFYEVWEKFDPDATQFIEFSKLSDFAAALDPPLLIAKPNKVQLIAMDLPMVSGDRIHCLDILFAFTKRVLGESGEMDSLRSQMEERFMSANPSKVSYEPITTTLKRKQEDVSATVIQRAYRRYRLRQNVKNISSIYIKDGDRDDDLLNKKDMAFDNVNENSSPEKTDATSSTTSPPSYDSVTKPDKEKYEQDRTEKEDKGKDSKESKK
HBA1 with beta chain: Hemoglobin subunit alpha, with beta chain (HBA1, Homo sapiens, UniProt P69905)
Sequence of UniProt P69905 (whole entry, looked up): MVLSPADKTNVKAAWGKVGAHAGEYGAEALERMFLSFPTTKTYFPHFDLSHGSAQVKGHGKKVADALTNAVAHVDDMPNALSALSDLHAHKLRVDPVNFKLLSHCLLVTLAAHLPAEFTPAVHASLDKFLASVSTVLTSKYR
WWOX WW1 domain: WW domain-containing oxidoreductase, WW1 domain (WWOX, Homo sapiens, UniProt Q9NZC7)
Sequence of UniProt Q9NZC7 (whole entry, unmodified, looked up): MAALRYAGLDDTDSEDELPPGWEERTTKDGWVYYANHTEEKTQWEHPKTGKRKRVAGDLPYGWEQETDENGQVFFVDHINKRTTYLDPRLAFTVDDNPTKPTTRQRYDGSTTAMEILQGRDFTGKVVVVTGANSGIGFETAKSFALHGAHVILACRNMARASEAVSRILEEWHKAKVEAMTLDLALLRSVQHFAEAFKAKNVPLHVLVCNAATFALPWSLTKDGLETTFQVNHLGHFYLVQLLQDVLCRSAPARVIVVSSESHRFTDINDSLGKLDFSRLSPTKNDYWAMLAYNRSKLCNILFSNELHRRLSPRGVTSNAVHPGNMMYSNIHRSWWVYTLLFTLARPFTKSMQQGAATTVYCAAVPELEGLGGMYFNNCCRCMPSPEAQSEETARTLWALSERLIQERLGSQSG
Sequence of UniProt P0DMV8 (whole entry, looked up): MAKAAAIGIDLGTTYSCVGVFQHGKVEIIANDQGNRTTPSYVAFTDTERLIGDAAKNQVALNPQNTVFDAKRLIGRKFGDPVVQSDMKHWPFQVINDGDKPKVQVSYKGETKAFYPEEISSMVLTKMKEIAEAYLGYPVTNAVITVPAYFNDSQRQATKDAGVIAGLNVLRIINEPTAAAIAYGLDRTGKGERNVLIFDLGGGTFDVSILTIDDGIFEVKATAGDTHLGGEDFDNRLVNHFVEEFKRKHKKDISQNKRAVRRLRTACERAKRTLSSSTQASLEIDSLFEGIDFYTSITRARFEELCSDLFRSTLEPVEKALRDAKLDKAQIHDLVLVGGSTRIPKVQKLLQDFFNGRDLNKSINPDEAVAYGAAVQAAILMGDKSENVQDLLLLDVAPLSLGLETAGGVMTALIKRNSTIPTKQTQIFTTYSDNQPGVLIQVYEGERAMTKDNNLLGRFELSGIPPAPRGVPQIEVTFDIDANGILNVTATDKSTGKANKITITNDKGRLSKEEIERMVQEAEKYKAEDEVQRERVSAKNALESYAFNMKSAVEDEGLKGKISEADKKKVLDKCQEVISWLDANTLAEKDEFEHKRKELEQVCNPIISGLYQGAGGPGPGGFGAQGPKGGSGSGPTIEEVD
Sequence of UniProt P01899 (whole entry, looked up): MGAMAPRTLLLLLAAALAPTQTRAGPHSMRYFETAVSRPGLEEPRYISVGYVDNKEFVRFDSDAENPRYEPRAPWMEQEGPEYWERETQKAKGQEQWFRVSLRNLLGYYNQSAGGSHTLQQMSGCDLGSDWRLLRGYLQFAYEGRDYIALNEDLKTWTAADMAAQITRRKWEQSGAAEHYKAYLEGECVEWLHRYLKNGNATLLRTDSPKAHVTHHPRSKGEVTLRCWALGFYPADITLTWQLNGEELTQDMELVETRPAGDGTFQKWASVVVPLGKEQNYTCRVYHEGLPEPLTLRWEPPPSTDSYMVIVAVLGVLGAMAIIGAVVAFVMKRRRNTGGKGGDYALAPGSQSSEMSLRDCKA

Molecule	target	assay	system	conditions	scale	measurement	value
COc1cc2c(cc1OC)-c1c/c(=N\c3c(C)cc(C)cc3C)n(C)c(=O)n1CC2	PDE1C	cAMP hydrolysis, inhibitor	–	up to 50 µM	–	IC50	inactive
CC(=C\C(=O)O)/C=C(\C)C[C@H](C)CCCC[C@H]1OC(=O)[C@@H]1CO	mvaS (Enterococcus faecalis, UniProt Q9FD71)	enzyme activity, inhibitor, absorbance	–	–	–	KI (inactivation)	700 nM
COc1cc2oc(-c3ccc(O)cc3)cc(=O)c2c(O)c1OC	MAL12	enzyme activity, inhibitor, absorbance	–	25 µM	–	inhibition	45.1%
COC(=O)c1scc(C)c1NC(=O)C(C)N1CCS(=O)(=O)CC1 (stereo not shown)	SCN9A	cell membrane chromatography	–	–	higher = stronger binding	capacity factor k′	0
CC[C@H](C)[C@H](NC(=O)[C@H](CC(N)=O)NC(=O)[C@H](Cc1c[nH]cn1)NC(=O)[C@@H](NC(=O)[C@H](CCC(N)=O)NC(=O)[C@H](CCCNC(=N)N)NC(=O)[C@@H](NC(=O)[C@@H](N)CCC(=O)O)[C@@H](C)CC)[C@@H](C)O)C(=O)N[C@@H](Cc1ccccc1)C(=O)N[C@@H](Cc1ccccc1)C(=O)N[C@@H](CC(N)=O)C(=O)N[C@@H](Cc1ccccc1)C(=O)N[C@@H](Cc1ccccc1)C(=O)N[C@@H](CCCCN)C(=O)N[C@@H](CCCNC(=N)N)C(=O)N[C@@H](CCCNC(=N)N)C(=O)O	histidine kinase ComD (Streptococcus pneumoniae serotype 2, UniProt A0A0H2ZM50)	reporter gene, agonist	Streptococcus pneumoniae, D39 pcomX::lacZ	10 µM	relative to: native CSP1	ComD1 activation	> 75%
CC(C)C[C@H](NC(=O)[C@@H](NC(=O)[C@@H](N)[C@@H](C)O)C(C)C)C(=O)N1CCC[C@H]1C(=O)N1CCC[C@H]1C(=O)N1CCC[C@H]1C(=O)N1CCC[C@H]1C(=O)N[C@@H](Cc1ccc(O)cc1)C(=O)N[C@@H](CCCNC(=N)N)C(=O)N[C@@H](Cc1c[nH]cn1)C(=O)N[C@@H](CCCNC(=N)N)C(=O)N[C@@H](CC(N)=O)C(=O)O	WW domain-containing oxidoreductase, WW1-WW2 tandem domains (WWOX, Homo sapiens, UniProt Q9NZC7)	binding, ITC	–	pH 7.0, 25 °C	–	ΔG	-5.7 ± 0.07 kcal/mol
CC/C=C/[C@H](CC)C/C(=C/[C@@]1(CC)C[C@H](CC)[C@H](CC(=O)O)OO1)CC	Neuropeptide Y receptor type 1 (NPY1R, Homo sapiens, UniProt P25929)	ligand displacement, radioligand	–	100 µg/mL, 30 min	–	remaining binding	78%
C[N+](C)(C)C[C@@H](O)CC(=O)[O-]	Organic cation/carnitine transporter 2 (SLC22A5, Homo sapiens, UniProt O76082)	transporter uptake, inhibitor	–	20 µM	–	inhibition	58.5%
COC(=O)c1scc(C)c1NC(=O)C(C)N(CCO)CCO (stereo not shown)	SCN9A	cell membrane chromatography	–	–	higher = stronger binding	capacity factor k′	0
CC(=O)OCc1ccc(C=O)o1	HBA1 with beta chain	refers to: haemoglobin A adduct	human normal whole blood	2000 µM, 24 h, hematocrit 30%	–	peak modification	23.8%
O=c1cc(-c2ccccc2)oc2cc(O)ccc12	MAL12	enzyme activity, inhibitor	–	10 µM, added: p-nitrophenyl α-D-glucopyranoside	–	inhibition	< 1%
CC1=C(C(=O)OCc2ccccc2)C(c2ccc(-c3ccccc3)cc2)NC(=S)N1Cc1ccc(-c2nnn[nH]2)cc1 (stereo not shown)	Heat shock 70 kDa protein 1A, with Hdj2 (HSPA1A, Homo sapiens, UniProt P0DMV8)	ATPase activity, inhibitor	–	100 µM, Hsp40-stimulated activity, added: Hdj2 Hsp70:Hsp40 1:0.5	relative to: DMSO, negative means inhibition	fold change in activity	-4.5 fold
CQLGPYELWELSH	bevacizumab	QCM frequency change, QCM	peptide	concentration not given, added: bevacizumab 1 µg/µL	–	binding	increased
COc1cc2oc(-c3ccccc3)cc(=O)c2c(OC)c1O	MAL12	enzyme activity, inhibitor, absorbance	–	100 µM	–	inhibition	69.6%
O=C(O)c1cc2ccccc2cn1	PY04617 (Plasmodium yoelii, UniProt Q7RFT5)	ultrafiltration HPLC-UV	–	0.1 mM, pH 7.25, 4 °C, 6.5% DMSO, added: methionine competitor	–	UV signal reduction	91.7 ± 1.1%
Clc1cccc(Nc2nnc(-c3ccccc3)c3ccccc23)c1	PDE1C	cAMP hydrolysis, inhibitor, fluorescence polarization	recombinant enzyme	up to 100 µM, 30 min preincubation, 30 °C, added: fluorescein-cAMP 25 nM	–	IC50	inactive

Molecule	target	assay	system	conditions	scale	measurement	value
CC1=C(C(=O)OCc2ccccc2)C(c2ccc(-c3ccccc3C)cc2)NC(=O)N1CCCCCc1nnn[nH]1 (stereo not shown)	Heat shock 70 kDa protein 1A (HSPA1A, Homo sapiens, UniProt P0DMV8)	ATPase activity, inhibitor	–	100 µM, without Hsp40	relative to: DMSO, negative means inhibition	fold change in activity	-1.4 fold
O=Cc1c(O)cccc1OCc1cccc(CO)n1	HBA1 with beta chain	binding, cation-exchange HPLC	–	37 °C	–	kon	16.9 M⁻¹ s⁻¹
CC(C)C[C@H](NC(=O)[C@@H](NC(=O)[C@@H](N)[C@@H](C)O)C(C)C)C(=O)N[C@@H](C)C(=O)N1CCC[C@H]1C(=O)N1CCC[C@H]1C(=O)N1CCC[C@H]1C(=O)N[C@@H](Cc1ccc(O)cc1)C(=O)N[C@@H](CCCNC(=N)N)C(=O)N[C@@H](Cc1c[nH]cn1)C(=O)N[C@@H](CCCNC(=N)N)C(=O)N[C@@H](CC(N)=O)C(=O)O	WWOX WW1 domain	binding to WW1 domain, isothermal titration calorimetry	–	concentration not given, pH 7.0, 25 °C	–	binding enthalpy ΔH	-3.33 ± 0.42 kcal/mol
CC(=O)N[C@H](Cc1ccc2ccccc2c1)C(=O)N[C@@H](CCCNC(=N)N)C(=O)N[C@@H](Cc1c[nH]c2ccccc12)C(=O)N[C@@H](CCCNC(=N)N)C(N)=O	Melanocyte-stimulating hormone receptor (Mc1r, Mus musculus, UniProt Q01727)	cAMP, agonist, AlphaScreen	HEK293	–	–	Emax	40%
CC(C)C[C@H](NC(=O)[C@@H](NC(=O)[C@@H](N)[C@@H](C)O)C(C)C)C(=O)N1CCC[C@H]1C(=O)N1CCC[C@H]1C(=O)N1CCC[C@H]1C(=O)N1CCC[C@H]1C(=O)N[C@@H](Cc1ccc(O)cc1)C(=O)N[C@@H](C)C(=O)N[C@@H](Cc1c[nH]cn1)C(=O)N[C@@H](CCCNC(=N)N)C(=O)N[C@@H](CC(N)=O)C(=O)O	WWOX WW1 domain	binding to WW1 domain, isothermal titration calorimetry	–	pH 7.0, 25 °C	–	binding free energy ΔG	-4.87 ± 0.14 kcal/mol
COCCN1CCN(C(C)C(=O)Nc2c(C)csc2C(=O)OC)CC1 (stereo not shown)	SCN9A	cell membrane chromatography	–	–	higher = stronger binding	capacity factor k′	107
C=CC(C)=CCC=C(C)C	chemosensory protein 3 (Chilo suppressalis, UniProt V9PY40)	binding, competitive ligand, fluorescence competitive binding	–	highest concentration tested, pH 7.4, protein 2 µM, added: 1-NPN 2 µM	relative to: no ligand	remaining 1-NPN fluorescence	> 100%
KKLTVWI	Alpha-synuclein (SNCA, Homo sapiens, UniProt P37840)	aggregation	peptide	2 molar equivalents, pH 7.5, 37 °C, 1.5% HFIP	–	time to visible turbidity	~6 h
VLASVSATHAKSSPY	human IgE	peptide microarray	peptide, peanut-allergic patient sera	concentration not given, 16 h, 4 °C	–	patients with IgE binding	58%
CC(C)C[C@H](NC(=O)[C@H](C)NC(=O)[C@@H](N)[C@@H](C)O)C(=O)N1CCC[C@H]1C(=O)N1CCC[C@H]1C(=O)N1CCC[C@H]1C(=O)N1CCC[C@H]1C(=O)N[C@@H](Cc1ccc(O)cc1)C(=O)N[C@@H](CCCNC(=N)N)C(=O)N[C@@H](Cc1c[nH]cn1)C(=O)N[C@@H](CCCNC(=N)N)C(=O)N[C@@H](CC(N)=O)C(=O)O	WWOX WW1 domain	binding to WW1 domain, isothermal titration calorimetry	–	concentration not given, pH 7.0, 25 °C	–	binding enthalpy ΔH	-3.67 ± 0.23 kcal/mol
O=c1c(O)c(-c2cc(O)c(O)c(O)c2)oc2cc(O)cc(O)c12	Kcnh1 (Mus musculus, UniProt Q60603)	inside-out patch clamp	Xenopus oocytes	10 µM	–	V1/2 shift	-8 ± 5.7 mV
H-AQHLLVLPRGLLGCTTLAK(Biotin) (Biotin = O=C1N[C@H]2[C@H](CS[C@H]2CCCCC(=O)*)N1)	FcγRI	binding, ELISA	peptide	16.6, 5.53, 1.84 µM, 2 h, 24 °C, added: human IgG1 1.3 µM	–	competition with IgG1	inactive
AMFKNNYPSL	H-2 class I histocompatibility antigen, D-B alpha chain, 17 (H2-D1, Mus musculus, UniProt P01899)	H2-D binding, flow cytometry	peptide, RMA-S	10 µg per 100 µL, 3 h	–	MFI increase	298%
COc1cc(-c2cc(=O)c3ccc(O)c(OC)c3o2)cc(O)c1OC	MAL12	enzyme activity, inhibitor, absorbance	–	100 µM	–	inhibition	98.7%
CC(=O)N[C@@H](Cc1ccccc1)C(=O)N[C@H](Cc1ccc(-c2ccccc2)cc1)C(=O)N[C@@H](CCCNC(=N)N)C(=O)N[C@@H](Cc1c[nH]c2ccccc12)C(N)=O	Melanocortin receptor 3 (Mus musculus, UniProt P33033)	receptor activity, agonist, cell-based	–	up to 100 µM, Schild antagonism analysis	–	agonist and antagonist activity	inactive
